Experimental data gathered from unrelated publications.
Each line is one published result; not all experiments were run side by side. “And” joins repeats or separate records; there may be more than shown. ± marks the error that the study gave.
Cell line: MDA-MB-231

With `CC(=O)N[C@@H](Cc1c[nH]c2ccccc12)C(=O)[O][Re-2]1(=[C]=O)(=[C]=O)(=[C]=O)[n+]2c(C)cc(-c3ccccc3)c3ccc4c(-c5ccccc5)cc(C)[n+]1c4c32` the IC50 was 1.74 µM (cell growth or viability, resazurin; 72 h).
`COC1=C(OC)C(O)C(CC=C(C)CCC=C(C)CCC=C(C)C(=O)O)C(C)C1=O` (stereo not shown) has an IC50 of over 25 µM (cell growth or viability, MTS; 72 h).
The IC50 of `C[C@]12CC/C(=N\OCCN3CCCCC3)C=C1CCC1C2CC[C@]2(C)/C(=C/c3ccccn3)CCC12` (stereo partly shown) is reported as 19.1 µM (cell growth or viability, MTT; 72 h).
With `CC/C(=C(\c1ccccc1)c1ccc(OCCN(C)CCCCC(=O)NCCc2c[nH]c3ccc(OC)cc23)cc1)c1ccccc1` the IC50 was 7.3 µM (cell survival, MTT; day 9, dosed days 2, 4, 7).
`CCN(CC)c1ccc2c(c1)[O][Pd]([CH2]C#N)[N](Cc1ccccc1)c1ncccc1N=C2` has an IC50 of 34.4 µM (cell growth or viability, MTT; 48 h).
`c1ccc(-n2nc(-c3ccccn3)n[n+]2-c2ccccc2)cc1` has an IC50 of 210 µM (cell growth or viability, resazurin; 72 h).
`COC(=O)C1CN1S(=O)(=O)c1ccc2cc(N(C)C)ccc2c1` (stereo not shown) has an IC50 of 38 µM (cell growth or viability, MTT; 48 h).
The IC50 of `Cc1ccc(C(C)C)cc1.O=C(N=P(c1ccccc1)(c1ccccc1)c1ccccc1)c1ccccn1.[Cl-].[Cl-].[Ru+2]` is reported as 2.61 µM and 2.64 µM (cell growth or viability, MTT; 24 h).
`CCCCCCCCCCCCCCCOC(=O)/C=C/c1ccc(OC)c(OC)c1` gave an IC50 of 39.4 ± 4.1 µg/mL (cell viability, MTT; 48 h, serum-free medium).
For `CCOC(=O)c1ccc2c(c1)n(CC)[c]([Au-]([Cl])([Cl])[Cl])[n+]2CC`, the IC50 was 4.7 µM (cell growth or viability, crystal violet; 96 h).
The IC50 of `CN[C@@H](C)C(=O)N[C@H]1CN(C(=O)Cc2ccccc2)CC[C@H]2CC[C@@H](C(=O)NCc3ccc(F)cc3)N2C1=O` is reported as 0.017 µM (cell growth or viability; 96 h).
With `COc1ccc(CNC[C@@](O)(COCc2ccccc2)[C@@H]2CC[C@@H](C)C[C@H]2OCc2ccccc2)cc1` the IC50 was 3.2 µM (cell growth or viability, MTT; 72 h).
With `CC(C)=CCC1=C(O)c2c(occ(-c3ccc(O)cc3)c2=O)C(CC=C(C)C)(CC=C(C)C)C1=O` the IC50 was 15.4 µM (cell growth or viability, MTT; 24 h).
With `O=C1c2cccc[c]2[Au-]([Cl])([Cl])[N+]1=P(c1ccccc1)(c1ccccc1)c1ccccc1` the IC50 was 102 µM (cell growth or viability, MTT; 24 h).
`Cc1cc(C)c([N+]#[C][Pd-2]([Cl])([Cl])[C]#[N+]c2c(C)cc(C)cc2C)c(C)c1` has an IC50 of 24 µM (cell growth or viability).
`O=S([O-])c1ccccc1N=Cc1ccccc1[O-].[Cu+2].c1c[nH]cn1` gave an IC50 of 9.97 ± 0.03 µM (cell viability, MTT; 24 h).
The IC50 of `CN[C@@H](C)C(=O)N[C@H]1CN(C(=O)Cc2ccccc2)CC[C@H]2CC[C@@H](C(=O)NCc3cccc(Cl)c3)N2C1=O` is reported as 0.294 µM (cell growth or viability; 96 h).
`O=C1N(Cc2cn(CC/C(=C(\c3ccccc3)c3ccc(OCCO)cc3)c3ccccc3)nn2)c2ccccc2C12OCCO2` has an IC50 of over 100 µM (cell growth or viability, MTT).
`C=C1C(=O)OC2CC3=C[C@@H](C/C(C)=C/C(OC(=O)Cc4cccc5ccccc45)[C@H]12)OC3=O` (stereo partly shown) has an IC50 of 3.5 µM (cell growth or viability, MTT; 24 h).
For `CCOc1cc(/C=C/C(=O)/C=C/c2cn(-c3ccccc3)nc2C(=O)O)ccc1O`, the IC50 was 22.6 ± 2.17 µM (cell growth; 72 h).
`Cc1cc(/C=C/C#N)cc(C)c1Oc1cc(Nc2ccc(C#N)cn2)nc2cnccc12` has an IC50 of 16.4 ± 3.1 µM (48 h).
For `COc1cc(/C=N/NC(=O)c2cc3cc(Nc4nccc(-c5cccnc5)n4)ccc3[nH]2)cc(OC)c1`, the IC50 was 13.6 µM (cell growth or viability, MTT; 48 h).
The IC50 of `COc1cc2c(cc1OCCOc1no[n+]([O-])c1S(=O)(=O)c1ccccc1)CCC1C2CCC2(C)C(O)CCC12` (stereo not shown) is reported as 0.0183 µM (cell growth or viability, MTT; 48 h).
`CC(C)c1cccc(C(C)C)c1[N+]#[C][Pt-]([Cl])([Cl])=[C](Nc1cccc(CN[C](NC(C)(C)C)=[Au][Cl])c1)Nc1c(C(C)C)cccc1C(C)C` has an IC50 of over 100 µM (cell growth or viability).
The IC50 of `COc1ccc(COC[C@](O)(CNCc2ccccc2)[C@@H]2CC[C@@H](C)C[C@H]2OCc2ccc(OC)cc2)cc1` is reported as 2.1 µM (cell growth or viability, MTT; 72 h).
`COc1ccc2c(c1)OCc1c-2oc2cc3c(cc12)OCO3` has an IC50 of 22.8 µM (cell growth or viability, MTT; 72 h).
With `COc1ccccc1CNC[C@](O)(COCc1ccccc1)[C@@H]1CC[C@@H](C)C[C@H]1OCc1ccccc1` the IC50 was 2.5 µM (cell growth or viability, MTT; 72 h).
`CCCCCCCCCCCCCCCOC(=O)/C=C/c1cccc(OC)c1`: IC50 “inactive” (cell viability, MTT; 48 h, serum-free medium).
`CN(C)CCO/N=C1/C=C2CCC3C(CC[C@]4(C)/C(=C/c5ccccn5)CCC34)[C@@]2(C)CC1` (stereo partly shown) has an IC50 of over 100 µM (cell growth or viability, MTT; 72 h).
The IC50 of `COc1ccc(/N=N/C(=S)N2CCN(C)CC2)cc1` is reported as 49.2 µM (cell growth or viability, resazurin; 48 h).
For `O=C(CNc1nc(O)nc(NNC(=O)c2ccc(Nc3nc(Nc4ccc(C(=O)NNc5nc(O)nc(NCC(=O)NO)n5)cc4)nc(Nc4ccc(C(=O)NNc5nc(O)nc(NCC(=O)NO)n5)cc4)n3)cc2)n1)NO`, the IC50 was 0.0729 µM (cell growth or viability, MTT; 72 h).
For `CC(C)c1cccc(C(C)C)c1[N+]#[C][Pt-2]([Cl])([Cl])[C]#[N+]c1c(C(C)C)cccc1C(C)C`, the IC50 was 0.7 µM and < 1 µM (cell growth or viability).
`COC(=O)[C@@H](NC(=O)[C@@H](NC(=O)[C@@H](NC(=O)OC(C)(C)C)C(C)C)C(C)C)C(C)C` gave an IC50 of 30 µM (cell growth or viability, SRB).
For `Cc1cc(C)c(-n2c3c([n+](-c4c(C)cc(C)cc4C)[c]2[Cu-][Cl])-c2cccc4cccc-3c24)c(C)c1`, the IC50 was 5 µM (cell growth or viability, MTT; 72 h).
`C=CC(=C)CC[C@]1(C)[C@H](C)C[C@H](OC(=O)CCCCCCC)[C@@]23C(=C[C@H](OC(C)=O)C[C@@H]12)[C@@H](OC(C)=O)O[C@H]3OC(C)=O` gave an IC50 of 4.93 µM (cell growth or viability, SRB).
The IC50 of `Cc1cc(C)c([N+]#[C][Pt-]([Cl])([Cl])=[C](Nc2ccc(CN[C](Nc3c(C)cc(C)cc3C)=[Au][Cl])cc2)Nc2c(C)cc(C)cc2C)c(C)c1` is reported as over 100 µM (cell growth or viability).
With `COc1ccc2cc([C@H](C)C(=O)[O][Re-2]3(=[C]=O)(=[C]=O)(=[C]=O)[n+]4ccc(-c5ccccc5)c5ccc6c(-c7ccccc7)cc[n+]3c6c54)ccc2c1` the IC50 was 6.48 µM (cell growth or viability, resazurin; 72 h).

For quick reference, copied from above:
`O=C1N(Cc2cn(CC/C(=C(\c3ccccc3)c3ccc(OCCO)cc3)c3ccccc3)nn2)c2ccccc2C12OCCO2` has an IC50 of over 100 µM (cell growth or viability, MTT).
`C=C1C(=O)OC2CC3=C[C@@H](C/C(C)=C/C(OC(=O)Cc4cccc5ccccc45)[C@H]12)OC3=O` (stereo partly shown) has an IC50 of 3.5 µM (cell growth or viability, MTT; 24 h).
For `CCOc1cc(/C=C/C(=O)/C=C/c2cn(-c3ccccc3)nc2C(=O)O)ccc1O`, the IC50 was 22.6 ± 2.17 µM (cell growth; 72 h).
